Measurements collected from several papers.
Each numbered part is a random draw from the data of one study; scales do not carry over between parts. “And” joins repeats or separate records; there may be more than shown.
Chain of UniProt P28223 (whole entry, looked up): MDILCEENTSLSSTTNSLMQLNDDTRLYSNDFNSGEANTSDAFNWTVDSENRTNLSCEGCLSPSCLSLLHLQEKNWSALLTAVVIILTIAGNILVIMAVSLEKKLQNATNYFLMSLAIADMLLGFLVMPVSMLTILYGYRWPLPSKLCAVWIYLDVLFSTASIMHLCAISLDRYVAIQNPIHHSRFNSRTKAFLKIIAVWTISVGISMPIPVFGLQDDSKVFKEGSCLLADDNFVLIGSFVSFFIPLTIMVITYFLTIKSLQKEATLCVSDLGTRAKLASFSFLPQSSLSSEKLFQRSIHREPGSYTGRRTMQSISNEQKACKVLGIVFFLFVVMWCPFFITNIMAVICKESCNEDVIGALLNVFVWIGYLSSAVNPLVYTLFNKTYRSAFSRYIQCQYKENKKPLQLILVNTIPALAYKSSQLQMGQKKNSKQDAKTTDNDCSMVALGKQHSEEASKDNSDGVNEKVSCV
Chain of UniProt P11229 (whole entry, looked up): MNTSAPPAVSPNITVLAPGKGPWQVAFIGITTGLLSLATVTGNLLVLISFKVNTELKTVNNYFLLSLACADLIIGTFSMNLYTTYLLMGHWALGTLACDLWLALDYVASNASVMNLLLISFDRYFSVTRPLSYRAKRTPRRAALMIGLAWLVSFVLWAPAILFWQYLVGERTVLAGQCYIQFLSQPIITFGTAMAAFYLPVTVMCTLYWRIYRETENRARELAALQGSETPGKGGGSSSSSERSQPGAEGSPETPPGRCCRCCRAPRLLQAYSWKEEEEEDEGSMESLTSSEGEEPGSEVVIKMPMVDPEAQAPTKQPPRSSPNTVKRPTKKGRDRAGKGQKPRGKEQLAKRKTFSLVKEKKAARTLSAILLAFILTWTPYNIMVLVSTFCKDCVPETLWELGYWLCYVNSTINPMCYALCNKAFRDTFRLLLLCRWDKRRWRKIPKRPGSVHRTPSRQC
Chain of UniProt P20309 (whole entry, looked up): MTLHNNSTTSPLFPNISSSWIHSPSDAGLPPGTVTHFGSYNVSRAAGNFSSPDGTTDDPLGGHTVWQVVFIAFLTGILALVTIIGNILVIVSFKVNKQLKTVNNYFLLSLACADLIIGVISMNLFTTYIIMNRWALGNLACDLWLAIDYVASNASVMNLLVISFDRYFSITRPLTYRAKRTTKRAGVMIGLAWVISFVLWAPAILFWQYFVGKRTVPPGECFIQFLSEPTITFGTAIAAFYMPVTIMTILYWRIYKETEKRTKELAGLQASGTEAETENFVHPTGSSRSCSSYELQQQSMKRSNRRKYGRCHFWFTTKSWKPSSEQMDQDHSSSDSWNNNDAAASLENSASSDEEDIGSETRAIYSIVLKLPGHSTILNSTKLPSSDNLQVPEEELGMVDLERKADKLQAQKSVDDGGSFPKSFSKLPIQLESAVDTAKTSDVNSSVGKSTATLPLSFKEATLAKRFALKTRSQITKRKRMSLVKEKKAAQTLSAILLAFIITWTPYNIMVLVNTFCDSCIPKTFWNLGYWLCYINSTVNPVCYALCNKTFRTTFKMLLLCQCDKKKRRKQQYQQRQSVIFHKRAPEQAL
Chain of UniProt P41143 (whole entry, looked up): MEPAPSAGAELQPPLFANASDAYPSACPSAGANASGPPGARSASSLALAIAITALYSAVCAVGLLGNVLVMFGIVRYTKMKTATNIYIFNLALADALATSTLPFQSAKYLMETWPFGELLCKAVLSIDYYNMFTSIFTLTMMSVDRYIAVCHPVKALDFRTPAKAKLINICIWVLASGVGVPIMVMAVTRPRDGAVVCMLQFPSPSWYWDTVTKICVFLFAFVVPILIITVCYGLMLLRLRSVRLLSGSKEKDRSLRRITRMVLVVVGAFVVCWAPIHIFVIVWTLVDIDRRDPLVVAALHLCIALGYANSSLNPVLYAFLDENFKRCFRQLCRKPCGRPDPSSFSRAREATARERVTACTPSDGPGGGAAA
Chain of UniProt P41145 (whole entry, looked up): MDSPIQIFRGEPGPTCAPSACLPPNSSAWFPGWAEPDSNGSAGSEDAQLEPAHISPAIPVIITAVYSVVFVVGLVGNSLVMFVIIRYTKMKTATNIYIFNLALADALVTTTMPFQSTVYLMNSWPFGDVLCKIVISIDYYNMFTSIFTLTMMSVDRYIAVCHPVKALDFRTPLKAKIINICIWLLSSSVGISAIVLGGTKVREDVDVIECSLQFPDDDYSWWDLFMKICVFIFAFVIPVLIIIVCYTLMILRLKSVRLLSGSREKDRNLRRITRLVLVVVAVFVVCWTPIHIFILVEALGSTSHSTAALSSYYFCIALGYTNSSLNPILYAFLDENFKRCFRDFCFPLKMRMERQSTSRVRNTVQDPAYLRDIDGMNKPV
Chain of UniProt P35372 (whole entry, looked up): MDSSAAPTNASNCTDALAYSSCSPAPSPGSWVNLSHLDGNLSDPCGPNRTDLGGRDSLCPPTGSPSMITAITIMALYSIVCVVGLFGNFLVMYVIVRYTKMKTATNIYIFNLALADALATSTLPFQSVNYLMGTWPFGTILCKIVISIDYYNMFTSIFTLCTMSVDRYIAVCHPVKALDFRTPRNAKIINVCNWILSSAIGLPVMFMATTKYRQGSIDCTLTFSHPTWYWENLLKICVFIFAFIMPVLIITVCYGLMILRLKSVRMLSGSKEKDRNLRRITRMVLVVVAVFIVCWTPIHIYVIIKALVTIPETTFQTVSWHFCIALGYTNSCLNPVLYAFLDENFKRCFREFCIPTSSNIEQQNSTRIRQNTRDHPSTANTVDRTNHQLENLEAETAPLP

Set 1
SMILES: O=C1CCC(N2Cc3c(ccc4c3OCC43CCN(Cc4ccccc4)CC3)C2=O)C(=O)N1 (centres unmarked)
| test | system | conditions | half-life |
| --- | --- | --- | --- |
| – | male ICR mice, plasma | intravenous, 1.0 mg/kg | 1.2 h and 2.05 h |
| – | rat Sprague Dawley male, plasma | intravenous, 1.0 mg/kg | 1.95 h and 2 h |
| metabolic stability | mouse, liver microsomes | 1 µM | 1.16 h |
| – | male Sprague-Dawley rat, plasma | oral, 3 mg/kg | 1.36 h |
| – | rat Sprague Dawley male, plasma | oral, 3.0 mg/kg | 1.38 h and 1.39 h |
| – | ICR mouse, male, plasma | oral, 3.0 mg/kg | 4.24 h and 3.04 h and 1.38 h |
| – | Sprague Dawley rat, male, plasma | oral, 3.0 mg/kg | 1.3 h |
| – | male CD-1 mouse, plasma | oral, 3 mg/kg | 2.89 h |
| – | male ICR mice, plasma | oral, 3.0 mg/kg | 4.24 h and 3.04 h and 1.38 h |
| – | male Sprague-Dawley rat, plasma | intravenous, 1 mg/kg | 2.05 h |
| metabolic stability | rat, liver microsomes | 1 µM | 1.88 h |
| – | ICR mouse, male, plasma | intravenous, 1.0 mg/kg | 1.65 h |
| – | male CD-1 mouse, plasma | intravenous, 1 mg/kg | 1.64 h |
| – | ICR mice, male, plasma | oral, 3.0 mg/kg | 2.89 h |
| – | Sprague Dawley rat, male, plasma | intravenous, 1.0 mg/kg | 2.19 h |

Set 2 — effect on: cell-free assay; concentration: 10 µM
SMILES: N#Cc1ccc(Nc2ccc3[nH]c(=O)[nH]c3c2)c(Cl)c1
| target | inhibition [%] |
| --- | --- |
| OPRK1 (Homo sapiens, UniProt P41145) | 8.98 |
| OPRM1 (Homo sapiens, UniProt P35372) | 0.37 |
| OPRD1 (Homo sapiens, UniProt P41143) | -0.28 |
| HTR2A (Homo sapiens, UniProt P28223) | 5.37 |
| CHRM3 (Homo sapiens, UniProt P20309) | -26.6 |
| CHRM1 (Homo sapiens, UniProt P11229) | -9.92 |

Set 3 — effect on: acetyl-histone H4 peptide binding; method: AlphaScreen displacement; concentration: 50 µM
Target: Bromodomain-containing protein 4, BD1 (BRD4, Homo sapiens, UniProt O60885)
| SMILES | inhibition |
| --- | --- |
| CN1C(=O)NC(=O)C(=Cc2ccc[nH]2)C1=O | 9.75% |
| Nc1nc(N2CCNCC2)c2nc[nH]c2n1 | 13.6% |
| COc1cccc(N2C(=O)NC(=O)C(=CNc3ccc(F)cc3)C2=O)c1 | 7.95% |
| O=C1NC(=O)N(c2ccc(Br)cc2)C(=O)C1=Cc1ccc(-c2ccccc2C(=O)O)o1 | 15.6% |
| CC(O)=C(C#N)C(=O)Nc1cc(Br)ccc1Br | 9.6% |

Set 4 — effect on: RNA clamping; method: fluorescence polarization; concentration: concentration not given; setting: mean of two replicates; with: FAM-labelled poly r(AG)8 RNA
Target: Eukaryotic initiation factor 4A-I (EIF4A1, Homo sapiens, UniProt P60842)
Chain of UniProt P60842 (whole entry, looked up): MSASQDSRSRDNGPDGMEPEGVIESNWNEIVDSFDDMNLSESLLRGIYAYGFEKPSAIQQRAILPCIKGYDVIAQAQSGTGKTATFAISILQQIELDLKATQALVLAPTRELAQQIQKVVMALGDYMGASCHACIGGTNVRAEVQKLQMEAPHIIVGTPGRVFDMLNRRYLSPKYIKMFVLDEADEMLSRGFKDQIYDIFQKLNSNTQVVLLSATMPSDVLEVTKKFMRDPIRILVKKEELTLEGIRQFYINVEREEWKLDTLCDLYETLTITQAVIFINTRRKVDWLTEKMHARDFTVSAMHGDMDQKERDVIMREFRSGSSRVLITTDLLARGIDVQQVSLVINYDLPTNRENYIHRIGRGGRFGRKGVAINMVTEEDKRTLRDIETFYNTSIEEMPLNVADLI
| Structure (SMILES) | fluorescence polarization change |
| --- | --- |
| CCCCC1=N[C@@]2(O)[C@H](C(=O)OC)[C@@H](c3ccccc3)[C@]3(c4ccc(OC)cc4)Oc4cc(OC)cc(OC)c4[C@]23N1 | 67.5 mP |
| COCCN[C@]12c3c(OC)cc(OC)cc3O[C@@]1(c1ccc(OC)cc1)[C@H](c1ccccc1)C[C@@H]2O | 5.8 mP |
| COC(=O)[C@@H]1[C@@H](O)[C@@]2(O)c3c(OC)cc(OC)cc3O[C@@]2(c2ccc(OC)cc2)[C@H]1c1ccccc1 | 20.3 mP |
| CONC(=O)[C@@H]1[C@@H](O)[C@@]2(O)c3c(OC)cc(OC)cc3O[C@@]2(c2ccc(Br)cc2)[C@H]1c1ccccc1 | 17.4 mP |
| COc1ccc([C@@]23Oc4cc(OC)cc(OC)c4[C@]2(O)c2nc(-c4ccc(N(C)C)cc4)[nH]c(=O)c2[C@H]3c2ccccc2)cc1 | 8.6 mP |
| COC(=O)[C@H]1[C@@H](O)[C@@]2(O)c3c(OC)cc(O)cc3O[C@@]2(c2ccc(OC)cc2)[C@@H]1c1ccccc1 | 53.8 mP |
| COC(=O)[C@H]1[C@@H](c2ccccc2)C2(c3ccc(OC)cc3)Oc3cc(OC)cc(OC)c3[C@@]1(O)C2=O | 3 mP |
| COc1ccc([C@@]23Oc4cc(OC)cc(OC)c4[C@]2(O)c2nc4n(c(=O)c2[C@H]3c2ccccc2)CCCC4)cc1 | 51 mP |
| COc1ccc([C@@]23Oc4cc(OC)cc(OC)c4[C@]2(O)c2nc4n(c(=O)c2[C@H]3c2ccccc2)CCC4)cc1 | 60.9 mP and 70.3 mP |
| COC(=O)[C@@H]1[C@@H](c2ccccc2)[C@]2(c3ccccc3)Oc3ccccc3[C@@]1(O)[C@H]2O | 4.6 mP |
| COc1ccc([C@@]23Oc4cc(OC)cc(OC)c4[C@]2(O)c2nc(-c4ccccc4)n(C)c(=O)c2[C@H]3c2ccccc2)cc1 | 35.7 mP |
| COc1ccc(-c2nc3c(c(=O)[nH]2)[C@@H](c2ccccc2)[C@]2(c4ccc(OC)cc4)Oc4cc(OC)cc(OC)c4[C@]32O)cc1 | 25.2 mP and 8.6 mP |
| COc1ccc([C@@]23Oc4cc(OC)cc(OC)c4[C@]2(O)c2nc[nH]c(=O)c2[C@H]3c2ccccc2)cc1 | 42.5 mP |
| COc1ccc([C@@]23Oc4cc(OC)cc(OC)c4[C@]2(O)c2nc(-c4ccccc4)[nH]c(=O)c2[C@H]3c2ccccc2)cc1 | 14.2 mP |
| COCC1=N[C@@]2(O)[C@H](C(=O)N(C)OC)[C@@H](c3ccccc3)[C@]3(c4ccc(OC)cc4)Oc4cc(OC)cc(OC)c4[C@]23N1 | 56.4 mP |

Excerpt of the above (set 4):
| Structure (SMILES) | fluorescence polarization change |
| --- | --- |
| COc1ccc([C@@]23Oc4cc(OC)cc(OC)c4[C@]2(O)c2nc4n(c(=O)c2[C@H]3c2ccccc2)CCCC4)cc1 | 51 mP |
| COc1ccc([C@@]23Oc4cc(OC)cc(OC)c4[C@]2(O)c2nc(-c4ccccc4)[nH]c(=O)c2[C@H]3c2ccccc2)cc1 | 14.2 mP |
| COC(=O)[C@H]1[C@@H](c2ccccc2)C2(c3ccc(OC)cc3)Oc3cc(OC)cc(OC)c3[C@@]1(O)C2=O | 3 mP |
| COc1ccc([C@@]23Oc4cc(OC)cc(OC)c4[C@]2(O)c2nc[nH]c(=O)c2[C@H]3c2ccccc2)cc1 | 42.5 mP |
